{"data": "Measured values from different studies", "note": "A part holds a random share of what one study measured. Positions count from the first letter of the parent shown."}
{"data": "Series 1", "target": "Fragile X messenger ribonucleoprotein 1, C-terminal low-complexity region (Fmr1, Mus musculus, UniProt P35922)", "technique": "RNA Bind-n-Seq", "molecule type": "RNA", "matrix": "in vitro", "tested at": "200 nM", "notes": "whole 134-nt RNA, ends assumed", "added": "150 mM KCl", "relative to": "input library", "direction": "higher = stronger binding"}
{"Sequence": "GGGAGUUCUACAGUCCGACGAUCUAACUUUAGAGGAGGAUCUGAUGGAUAUGGCAGUGGACGUGGAUUUGGGGAUGGCUAUAAUGGGUAUGGAGGAGGACCUGGAGGUCGCAAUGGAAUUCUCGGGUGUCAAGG", "log2 enrichment": 0.275}
{"Sequence": "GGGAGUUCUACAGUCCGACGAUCCUGUGCUACACAUCGUAUGUACCGAAUCGGGGCCCCCCCGGGCCCCCCCGGGCCCCCCCGGAAAGUAUUAUGUUACGCCGUUCGGAUCUGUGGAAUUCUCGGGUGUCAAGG", "log2 enrichment": -1.06}
{"Sequence": "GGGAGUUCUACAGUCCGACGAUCGUCCUGUGCUACACAUCGUAUGUACCGAAUCGGGGCCCCCGGGCCCCCGGCCCCCGGGGAAAGUAUUAUGUUACGCCGUUCGGAUCUGCAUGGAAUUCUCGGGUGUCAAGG", "log2 enrichment": -0.565}
{"Sequence": "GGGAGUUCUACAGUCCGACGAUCGUCCUGUGCUACACAUCGUAUGUACCGAAUCGGGUUUUUUUGGGUUUUUGGGUUUGGGAAAGUAUUAUGUUACGCCGUUCGGAUCUGCACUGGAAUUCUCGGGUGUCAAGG", "log2 enrichment": 0.0556}
{"Sequence": "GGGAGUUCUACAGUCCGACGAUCCCUCAAGUCCUGUGCUACACAUCGUAUGUACCGAAUCGGGUGGUGGGGUGGGAAAGUAUUAUGUUACGCCGUUCGGAUCUGCACUUCCAGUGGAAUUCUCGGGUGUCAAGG", "log2 enrichment": 1.13}
{"Sequence": "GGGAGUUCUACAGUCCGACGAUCUAACUUUAGAGGAGGAUCUGAUGGAUAUGGCAGUCGACGUGGAUUUGGGGAUGGCUAUAAUGGGUAUGGAGGAGGACCUGGAGGUGGCAAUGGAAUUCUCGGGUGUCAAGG", "log2 enrichment": 0.138}
{"Sequence": "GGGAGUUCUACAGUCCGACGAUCAGUCCUGUGCUACACAUCGUAUGUACCGAAUCGGCCCCGGGGCCCCGGGCCCCGGGGAAAGUAUUAUGUUACGCCGUUCGGAUCUGCACUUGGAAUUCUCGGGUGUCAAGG", "log2 enrichment": -0.89}
{"Sequence": "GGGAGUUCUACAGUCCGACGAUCUGGGAGGUGGAUUUUGUUUAUUUUUUUAGCUCAUUUCCAGGGGUGGGAAUUUUUUUUUAAUAUGUGUCAUGAAGAAAGUUGUUUUUGAAAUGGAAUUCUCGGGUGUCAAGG", "log2 enrichment": 0.331}
{"Sequence": "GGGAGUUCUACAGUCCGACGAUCCCUGUGCUACACAUCGUAUGUACCGAAUCAAACCCCCAAAUUUUUUUAAACCCCCCCAAAAAAGUAUUAUGUUACGCCGUUCGGAUCUGCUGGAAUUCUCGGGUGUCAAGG", "log2 enrichment": 0.0285}
{"data": "Series 2", "target": "Myc proto-oncogene protein, bHLH-zipper, MAX partner unstated (MYC, Homo sapiens, UniProt P01106, residues 368-449)", "technique": "protein-binding microarray", "molecule type": "double-stranded DNA, one strand shown", "matrix": "in vitro", "tested at": "not given", "notes": "k-mer, scored over probes, only values ≥0.25", "direction": "higher = stronger binding", "UniProt P01106, sequence (368-449, looked up)": "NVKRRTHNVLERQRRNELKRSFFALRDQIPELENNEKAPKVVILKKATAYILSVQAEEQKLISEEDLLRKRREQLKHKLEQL"}
{"Sequence": "CGAGGCAC", "E-score": 0.305}
{"Sequence": "AGGCACAT", "E-score": 0.38}
{"Sequence": "CCGTGGCG", "E-score": 0.269}
{"Sequence": "CACGCAAA", "E-score": 0.258}
{"Sequence": "CCAAGCAC", "E-score": 0.3}
{"Sequence": "ACATGCGT", "E-score": 0.443}
{"Sequence": "CCATATGC", "E-score": 0.401}
{"Sequence": "AGTACCAC", "E-score": 0.293}
{"Sequence": "AAGCGTGC", "E-score": 0.401}
{"Sequence": "ATGCATGA", "E-score": 0.328}
{"Sequence": "ACATGACC", "E-score": 0.26}
{"Sequence": "ACGTCATG", "E-score": 0.259}
{"data": "Series 3", "target": "CCND2, cyclin fold, Cln2 fusion (human)", "technique": "yeast growth competition, sequencing", "matrix": "yeast", "notes": "weak parent motif", "relative to": "not given", "direction": "higher = stronger binding", "starting sequence": "CABLES2 docking peptide (human); ICAKRSLCAAFSV"}
{"Variant": "C2A", "normalised enrichment score": -0.451}
{"Variant": "F11A", "normalised enrichment score": 0.209}
{"Variant": "I1A", "normalised enrichment score": -0.575}
{"Variant": "V13A", "normalised enrichment score": -0.329}
{"Variant": "K4A", "normalised enrichment score": -0.351}
{"data": "Series 4", "Substance": "PhoQ, residues 284 288 289 292 302 303 SNSSNI", "technique": "Sort-seq", "refers to": "YFP reporter", "matrix": "E. coli", "notes": "PhoQ-PhoP variant library", "added": "10 µM Mg2+", "relative to": "high Mg2+ state", "direction": "higher = stronger signaling"}
{"target": "PhoP, residues 12 14 15 18 19 TQALL (Escherichia coli, UniProt P23836)", "fold induction": 2.87}
{"target": "PhoP, residues 12 14 15 18 19 QYFSL (Escherichia coli, UniProt P23836)", "fold induction": 4.94}
{"target": "PhoP, residues 12 14 15 18 19 NYFRM (Escherichia coli, UniProt P23836)", "fold induction": 6.46}
{"note": "Some of these lines once more (series 2):"}
{"Sequence": "ATGCATGA", "E-score": 0.328}
{"Sequence": "ACATGACC", "E-score": 0.26}
